# Measured values from different studies.
# Numbers after ± are the reported error.
# Polyprotein P1234 nsP2: Polyprotein P1234, nsP2 (Chikungunya virus, UniProt Q8JUX6)
Structure (SMILES),target,test,test system,setting,inhibition
O=c1c(OP(=O)(O)O)c(-c2ccc(OP(=O)(O)O)c(OP(=O)(O)O)c2)oc2cc(OP(=O)(O)O)cc(OP(=O)(O)O)c12,"Spike glycoprotein, receptor-binding domain (MERS-CoV, UniProt K9N5Q8)",spike protein activity,,concentration not given,inhibited
COC1C(O)C(COP(=O)(O)OP(=O)(O)OP(=O)(O)O)OC1n1cnc2c(=O)[nH]c(N)nc21 (stereo not shown),"mRNA-decapping protein OPG122 (OPG122, Vaccinia virus, UniProt P04312)",,,100 µM,75%
C[C@H](NC(=O)[C@@H](c1cccnc1)N(C(=O)c1ccco1)c1ccc(-c2ccccc2)cc1)c1ccccc1,"Cathepsin B (CTSB, Homo sapiens, UniProt P07858)","enzyme activity, inhibitor",,20 µM,55%
O=C(O)c1ccc(Nc2cc(Nc3ccc(C(=O)O)cc3)c3c(=O)c(Nc4ccc(C(=O)O)cc4)c(-c4ccc(Nc5ccc(C(=O)O)cc5)c(Nc5ccc(C(=O)O)cc5)c4)oc3c2)cc1,"Spike glycoprotein (Severe acute respiratory syndrome coronavirus 2, UniProt P0DTC2)",spike protein activity,SARS-CoV-2,concentration not given,inhibited
O=S(=O)(O)c1ccc(N=Nc2cc(Oc3ncc(Cl)cc3Cl)ccc2O)cc1,"Ba71V-97, DNA complex (African swine fever virus, UniProt P42494)",enzyme activity,,100 µM,> 50%
COc1ccc(F)cc1S(=O)(=O)Nc1cnc2c(c1)C(=O)NCCO2,strychnine-sensitive glycine receptor,radioligand binding,,10 µM,18%
CC[C@H](C)[C@H](NC(=O)[C@H](Cc1c[nH]cn1)NC(=O)[C@H](Cc1ccc(O)cc1)NC(=O)[C@H](CCCCN)NC(=O)[C@@H]1CSSC[C@@H]2NC(=O)[C@H](CCC(=O)O)NC(=O)[C@H](CC(=O)O)NC(=O)[C@H](C)NC(=O)CNC(=O)[C@H](Cc3ccc(O)cc3)NC(=O)[C@H](CCCCN)NC(=O)[C@@H]3CSSC[C@H](NC(=O)[C@H](C(C)C)NC(=O)[C@H](Cc4ccc(O)cc4)NC(=O)CNC(=O)[C@H](CCCCN)NC(=O)[C@H](CSSC[C@H](NC(=O)[C@@H](N)CO)C(=O)N[C@@H](CCCCN)C(=O)N[C@@H](C(C)C)C(=O)N4CCC[C@H]4C(=O)N[C@@H](Cc4ccccc4)C(=O)N[C@@H](CC(N)=O)C(=O)N[C@@H](CCC(=O)O)C(=O)N3)NC2=O)C(=O)N[C@@H](CO)C(=O)N[C@@H](CCCCN)C(=O)N[C@@H](CCCNC(=N)N)C(=O)N[C@@H](CC(=O)O)C(=O)NCC(=O)N[C@@H](Cc2c[nH]c3ccccc23)C(=O)N1)C(=O)N[C@@H](CC(N)=O)C(=O)O,"Sodium channel protein type 9 subunit alpha (SCN9A, Homo sapiens, UniProt Q15858)","ion current, inhibitor, patch clamp",HEK293,3.3 µM,15.2%
C[C@H](NCc1ccc(-c2ccc(C(F)(F)F)cc2)cc1)C(N)=O,"strychnine-sensitive glycine receptor, rat","binding, radioligand binding",biochemical,"1 µM, added: [3H]strychnine 10 nM",2%
Cc1ccc(N2CC3CC(C2)N3C)cc1C(=O)NC1(c2ccc3c4c(cccc24)C(=O)N3C)CC1,"Replicase polyprotein 1a, papain-like protease (Severe acute respiratory syndrome coronavirus 2, UniProt P0DTC1)",enzyme activity,,20 µM,100%
CC(C)C[C@H](NC(=O)[C@@H](NC(=O)[C@@H](CCCNC(=N)N)NC(=O)[C@@H](CCCNC(=N)N)NC(=O)[C@@H](CCCNC(=N)N)NC(=O)[C@@H](CCCNC(=N)N)NC(=O)[C@@H](CCCNC(=N)N)NC(=O)[C@@H](CCCNC(=N)N)NC(=O)[C@@H](CCCNC(=N)N)NC(=O)[C@@H](CCCNC(=N)N)NC(=O)[C@H](N)CCCNC(=N)N)C(C)C)C(=O)N[C@@H](CCCNC(=N)N)C(=O)O,"Lethal factor (Bacillus anthracis, UniProt P15917)","enzyme activity, inhibitor",,0.02 µM,33%
CS(=O)(=O)NCC1CCOC2(CCN(C(=O)C3(c4ccccc4)CCCC3)CC2)C1 (stereo not shown),Polyprotein P1234 nsP2,"ATPase activity, ADP-Glo",,200 µM,85%
CC[C@H](C)[C@H](NC(=O)[C@H](CCCCN)NC(=O)[C@H](CCCCN)NC(=O)[C@H](CC(C)C)NC(=O)[C@H](Cc1c[nH]c2ccccc12)NC(=O)CN)C(=O)NCC(=O)N[C@@H](CCCCN)C(=O)N[C@@H](CCCCN)C(=O)N[C@H](C(=O)N[C@@H](CCC(=O)O)C(=O)N[C@@H](CCCNC(=N)N)C(=O)N[C@H](C(=O)NCC(=O)N[C@@H](CCC(N)=O)C(=O)N[C@@H](Cc1c[nH]cn1)C(=O)N[C@H](C(=O)N[C@@H](CCCNC(=N)N)C(=O)N[C@@H](CC(=O)O)C(=O)N[C@@H](C)C(=O)N[C@H](C(=O)N[C@H](C(=O)N[C@@H](CCC(N)=O)C(=O)N[C@H](C(=O)N[C@H](C(=O)NCC(=O)N[C@H](C(=O)N[C@@H](C)C(=O)N[C@@H](CCC(N)=O)C(=O)N[C@@H](CCC(N)=O)C(=O)N[C@@H](C)C(=O)N[C@@H](C)C(=O)N[C@@H](CC(N)=O)C(=O)N[C@H](C(=O)N[C@@H](C)C(=O)N[C@@H](C)C(=O)N[C@H](C(=O)N[C@@H](CC(C)C)C(=O)N[C@@H](CCCCN)C(N)=O)[C@@H](C)O)C(C)C)C(C)C)[C@@H](C)CC)[C@@H](C)O)[C@@H](C)CC)[C@@H](C)O)[C@@H](C)O)C(C)C)[C@@H](C)CC,"Muscarinic acetylcholine receptor M3 (CHRM3, Homo sapiens, UniProt P20309)","antagonist, CEREP off-target panel",,10 µM,31%
N#CC1=C(N)OC2=C(c3sc(N)c(C#N)c3CC2)C1c1ccccc1Cl (stereo not shown),"OPG113, with D12 (Vaccinia virus, UniProt P04298)",,,50 µM,93.4 ± 6.75%
CC(C)(C(=O)N1CCC2(CC1)CC(CNS(C)(=O)=O)CCO2)c1ccccc1 (stereo not shown),Polyprotein P1234 nsP2,"ATPase activity, ADP-Glo",,200 µM,45%
O=C1c2sc(-c3ccc(N4CCC(CO)CC4)nc3F)nc2CCN1c1cccnc1,"Glutamate receptor ionotropic, NMDA 1 (Grin1, Rattus norvegicus, UniProt P35439)","ligand displacement, radioligand",,1 µM,-4%
Cn1ccc2cc(-n3c(=O)[nH]c4sc5c(c4c3=O)CCCC5)ccc21,"CHRNA1/CHRNG/CHRND (Homo sapiens, UniProt P02708+P07510+Q07001)",,,10 µM,6%
CC(C)C[C@H](NC(=O)[C@H](CC(=O)O)NC(=O)[C@H](CCC(=O)O)NC(=O)[C@H](C)NC(=O)[C@H](CCC(=O)O)NC(=O)[C@H](Cc1c[nH]cn1)NC(=O)[C@H](CC(N)=O)NC(=O)[C@H](Cc1ccccc1)NC(=O)[C@H](Cc1ccccc1)NC(=O)[C@H](CC(=O)O)NC(=O)[C@H](CC(C)C)NC(=O)[C@H](Cc1ccccc1)NC(=O)[C@@H](N)[C@@H](C)O)C(=O)N[C@@H](Cc1ccccc1)C(=O)N[C@@H](CSCc1ccc(S(=O)(=O)F)cc1)C(=O)O,"Spike glycoprotein, Omicron BA.2 RBD; ACE2 (Severe acute respiratory syndrome coronavirus 2, UniProt P0DTC2)",RBD binding to human ACE2,,"400 nM, SARS-CoV-2 Omicron BA.2 RBD",88%
CS(=O)(=O)NCC1CCOC2(CCN(C(=O)C3(c4ccccc4)CCC3)CC2)C1 (stereo not shown),Polyprotein P1234 nsP2,"ATPase activity, ADP-Glo",,200 µM,< 10%
CSCC[C@H](NC(=O)[C@H](CCN)NC(=O)[C@@H](NC(=O)[C@H](Cc1c[nH]c2ccccc12)NC(=O)[C@H](CCCNC(=N)N)NC(=O)[C@@H](N)CCNc1ccc([N+](=O)[O-])cc1[N+](=O)[O-])[C@@H](C)O)C(=O)N[C@@H](CC(C)C)C(N)=O,"Botulinum neurotoxin type B (Clostridium botulinum, UniProt P10844)","enzyme activity, inhibitor",,concentration not given,0%

# For quick reference, copied from above:
Structure (SMILES),target,test,test system,setting,inhibition
CS(=O)(=O)NCC1CCOC2(CCN(C(=O)C3(c4ccccc4)CCCC3)CC2)C1 (stereo not shown),Polyprotein P1234 nsP2,"ATPase activity, ADP-Glo",,200 µM,85%
CC(C)(C(=O)N1CCC2(CC1)CC(CNS(C)(=O)=O)CCO2)c1ccccc1 (stereo not shown),Polyprotein P1234 nsP2,"ATPase activity, ADP-Glo",,200 µM,45%
CC[C@H](C)[C@H](NC(=O)[C@H](CCCCN)NC(=O)[C@H](CCCCN)NC(=O)[C@H](CC(C)C)NC(=O)[C@H](Cc1c[nH]c2ccccc12)NC(=O)CN)C(=O)NCC(=O)N[C@@H](CCCCN)C(=O)N[C@@H](CCCCN)C(=O)N[C@H](C(=O)N[C@@H](CCC(=O)O)C(=O)N[C@@H](CCCNC(=N)N)C(=O)N[C@H](C(=O)NCC(=O)N[C@@H](CCC(N)=O)C(=O)N[C@@H](Cc1c[nH]cn1)C(=O)N[C@H](C(=O)N[C@@H](CCCNC(=N)N)C(=O)N[C@@H](CC(=O)O)C(=O)N[C@@H](C)C(=O)N[C@H](C(=O)N[C@H](C(=O)N[C@@H](CCC(N)=O)C(=O)N[C@H](C(=O)N[C@H](C(=O)NCC(=O)N[C@H](C(=O)N[C@@H](C)C(=O)N[C@@H](CCC(N)=O)C(=O)N[C@@H](CCC(N)=O)C(=O)N[C@@H](C)C(=O)N[C@@H](C)C(=O)N[C@@H](CC(N)=O)C(=O)N[C@H](C(=O)N[C@@H](C)C(=O)N[C@@H](C)C(=O)N[C@H](C(=O)N[C@@H](CC(C)C)C(=O)N[C@@H](CCCCN)C(N)=O)[C@@H](C)O)C(C)C)C(C)C)[C@@H](C)CC)[C@@H](C)O)[C@@H](C)CC)[C@@H](C)O)[C@@H](C)O)C(C)C)[C@@H](C)CC,"Muscarinic acetylcholine receptor M3 (CHRM3, Homo sapiens, UniProt P20309)","antagonist, CEREP off-target panel",,10 µM,31%
